Results of several laboratories.
Each numbered part is a random draw from the data of one study; scales do not carry over between parts. Substitutions count along the parent as printed.

Block 1
Target: Sal-like protein 4, full length isoform A (SALL4, Homo sapiens, UniProt Q9UJQ4, residues 1-1053)
UniProt Q9UJQ4, sequence (whole entry, looked up): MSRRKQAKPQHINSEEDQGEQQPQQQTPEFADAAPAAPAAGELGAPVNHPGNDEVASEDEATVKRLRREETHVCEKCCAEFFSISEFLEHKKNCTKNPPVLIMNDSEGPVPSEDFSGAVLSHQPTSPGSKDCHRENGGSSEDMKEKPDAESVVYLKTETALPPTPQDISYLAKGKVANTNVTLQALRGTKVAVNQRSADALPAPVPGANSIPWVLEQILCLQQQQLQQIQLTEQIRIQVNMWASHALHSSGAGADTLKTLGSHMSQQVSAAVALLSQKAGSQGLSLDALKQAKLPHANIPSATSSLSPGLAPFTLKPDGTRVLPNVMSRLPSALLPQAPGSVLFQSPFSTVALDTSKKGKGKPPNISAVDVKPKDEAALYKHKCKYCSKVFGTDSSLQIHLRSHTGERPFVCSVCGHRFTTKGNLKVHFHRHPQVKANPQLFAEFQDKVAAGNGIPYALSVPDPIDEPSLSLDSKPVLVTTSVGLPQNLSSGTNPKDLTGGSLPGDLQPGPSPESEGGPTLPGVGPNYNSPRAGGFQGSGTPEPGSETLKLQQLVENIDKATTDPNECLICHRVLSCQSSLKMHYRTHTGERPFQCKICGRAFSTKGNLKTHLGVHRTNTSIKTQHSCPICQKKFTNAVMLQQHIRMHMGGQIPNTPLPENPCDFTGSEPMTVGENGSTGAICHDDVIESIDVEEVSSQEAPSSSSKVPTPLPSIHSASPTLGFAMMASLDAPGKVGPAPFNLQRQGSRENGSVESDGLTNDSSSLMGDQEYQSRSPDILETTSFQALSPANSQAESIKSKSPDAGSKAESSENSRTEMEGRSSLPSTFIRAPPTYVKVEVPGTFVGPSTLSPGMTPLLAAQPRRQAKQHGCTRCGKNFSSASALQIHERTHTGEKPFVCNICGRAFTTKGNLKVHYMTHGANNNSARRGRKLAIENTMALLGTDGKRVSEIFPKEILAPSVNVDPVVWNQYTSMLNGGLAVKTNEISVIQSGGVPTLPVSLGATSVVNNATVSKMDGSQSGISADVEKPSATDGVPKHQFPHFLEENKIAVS
Method: universal PBM
Form: double-stranded DNA, one strand shown
Sample: in vitro
Concentration: 600 nM
Setting: 8-mer, flanks averaged, mean of replicates
Direction: higher = stronger binding
Endpoint: E-score
CTCAACTC: -0.016
CAGAAGGG: -0.152
TAGGTACA: 0.0426
TCCAAGGA: -0.00565
AGCCGCGA: -0.309
AGCGACAA: -0.0536
CACCCGAG: -0.235
CCTCACCC: -0.145
GAAACAAA: 0.238
CCATAAGC: 0.117
ACTCAGAA: 0.0953
CAACCCCA: -0.115
ACTACAAC: 0.0954
AGCAGGGC: -0.285
CGCTCAAC: -0.107
CATGGCGG: -0.272
CCCCGGCC: -0.366
CGACGGAA: -0.136
GGCGATAA: -0.0105
CACCAAAG: 0.0195
GGCCGGCA: -0.275
GATAGCAC: -0.0637
ATGTGTCG: 0.0138
CGGATACG: -0.242

Block 2
Target: Prothrombin, mature alpha-thrombin (F2, Homo sapiens, UniProt P00734)
Method: aptamer microarray, sandwich
Form: DNA with 2'F-ANA
Sample: in vitro
Concentration: 200 nM
Setting: whole 15-mer aptamer, many near background
With: Cy3 exosite-II aptamer, 400 nM
Direction: higher = stronger binding
Endpoint: mean fluorescence intensity
Strand: GGTTGGTGTGGTTGG
2'F-ANA at 1 6 8 11 14 15: 59.8 a.u.
2'F-ANA at 1 5 7 10 11 12 13: 45.4 a.u.
2'F-ANA at 1 2 4 5 6 8 10 11 12 13: 49.9 a.u.
2'F-ANA at 3 4 8 11 13 14 15: 381 a.u.
2'F-ANA at 2 3 6 7 8 9 11 12 13 15: 701 a.u.
2'F-ANA at 2 3 4 5 7 8 10 12 15: 55.8 a.u.
2'F-ANA at 1 2 4 5 8 10: 46.8 a.u.
2'F-ANA at 4 6 8 10 12 14: 55.3 a.u.
2'F-ANA at 1 2 3 5 8 11 12 15: 105 a.u.
2'F-ANA at 1 4 5 6 7 11 12 13: 64.6 a.u.
2'F-ANA at 1 3 4 6 7 8 9 10 11 13 14: 52.6 a.u.
2'F-ANA at 2 3 4 5 9 10 11 13 15: 53.4 a.u.
2'F-ANA at 4 6 11 12 15: 338 a.u.
2'F-ANA at 1 3 5 6 8 9 11 12 15: 104 a.u.
2'F-ANA at 2 6 7 8 9 13: 280 a.u.
2'F-ANA at 1 2 3 5 6 7 9 12: 140 a.u.
2'F-ANA at 2 3 10 12 13 14: 276 a.u.
2'F-ANA at 3 5 7 9 11 12 13: 161 a.u.
2'F-ANA at 2 3 5 9 11 14 15: 81.2 a.u.
2'F-ANA at 4 5 6 7 9 10 11 12 14 15: 46.7 a.u.
2'F-ANA at 1 2 7 8 9 10 11 12 15: 65.9 a.u.
2'F-ANA at 1 3 4 6 9 12: 353 a.u.
2'F-ANA at 1 2 4 6 7 12 15: 246 a.u.
2'F-ANA at 2 6: 447 a.u.
2'F-ANA at 2 6 7 11 13: 273 a.u.

Block 3
Target: CCNA2, cyclin fold, Cln2 fusion (human)
Method: yeast growth competition, sequencing
Sample: yeast
Setting: strong parent motif
Baseline: not given
Direction: higher = stronger binding
Endpoint: normalised enrichment score
Parent: PKN2 docking peptide (human); VSAVQKLDFSDTM
VSAVQKLPFSDTM [D8P]: 0.666
VSAVQCLDFSDTM [K6C]: 1.4
VSAVQKLDKSDTM [F9K]: 0.0606
VSIVQKLDFSDTM [A3I]: 1.45
VSAVQKLDFSITM [D11I]: 0.81
VSAVQKQDFSDTM [L7Q]: -0.435
VSLVQKLDFSDTM [A3L]: 0.385
VSAVQKEDFSDTM [L7E]: -0.385
VSAVQKLDFSDIM [T12I]: 2.14
VSAVQFLDFSDTM [K6F]: 0.28
VSGVQKLDFSDTM [A3G]: 0.0922

Block 4
Target: UBE2B UBC core domain (UniProt P63146)
UniProt P63146, sequence (whole entry, looked up): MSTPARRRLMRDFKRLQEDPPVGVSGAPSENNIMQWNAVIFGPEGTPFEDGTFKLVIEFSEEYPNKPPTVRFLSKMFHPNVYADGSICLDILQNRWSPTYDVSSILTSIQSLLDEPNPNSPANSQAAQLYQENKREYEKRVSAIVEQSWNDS
Method: yeast two-hybrid
Sample: yeast
Setting: mostly zero background
Baseline: not given
Direction: higher = stronger interaction
Endpoint: lacZ reporter activity
B1: DZIP3 RING domain (UniProt Q86Y13); chain PDEEEEEEEPCVICHENLSPENLSVLPCAHKFHAQCIRPWLMQQGTCPTCRLHVLLPEEFP
B2: TRIM62 RING domain (UniProt Q9BVG3); chain MACSLKDELLCSICLSIYQDPVSLGCEHYFCRRCITEHWVRQEAQGARDCPECRRTFAEPALAP
B3: UBOX5 RING domain (UniProt O94941); chain EQPGSILGPECASCKRVFSPYFKKEPVYQLPCGHLLCRPCLGEKQRSLPMTCTACQRPVASQDVLR
B4: MDM4 RING domain (UniProt O15151); chain MEDCQNLLKPCSLCEKRPRDGNIIHGRTGHLVTCFHCARRLKKAGASCPICKKEIQLVIKVF
B5: RBCK1 RING domain (UniProt Q9BYM8); chain SLVLNTEPAECPVCYSVLAPGEAVVLRECLHTFCRECLQGTIRNSQEAEVSCPFIDNTYSCSGKLLEREIK
B1 (DZIP3 RING domain): 0
NLSELTPYILCSICKGYLIDATTITECLHTFCKSCIVRHFYYSNRCPKCNIVVHQTQPLY (PCGF6 RING domain (UniProt Q9BYE7)): 0
FDGDVDPDLKCALCHKVLEDPLTTPCGHVFCAGCVLPWVVQEGSCPARCRGRLSAKELN (PDZRN3 RING domain (UniProt Q9UPQ7)): 0
KETIKKTTKPCPRCHVPVEKNGGCMHMKCPQPQCRLEWCWNCGCEWNRVCMG (PRKN RING domain (UniProt O60260)): 0
GSRLQEINDVCAICYHEFTTSARITPCNHYFHALCLRKWLYIQDTCPMCHQKVYIEDDIK (RNF139 RING domain (UniProt Q8WU17)): 0
YQNEVDDDLVCHICLQPLLQPLDTPCGHTFCYKCLRNFLQEKDFCPLDRKRLHFKLCKK (LNX2 RING domain (UniProt Q8N448)): 0
B2 (TRIM62 RING domain): 0
B3 (UBOX5 RING domain): 0
B4 (MDM4 RING domain): 0
B5 (RBCK1 RING domain): 0

Repeated from above (block 2):
2'F-ANA at 3 4 8 11 13 14 15: 381 a.u.
2'F-ANA at 2 3 4 5 9 10 11 13 15: 53.4 a.u.
2'F-ANA at 1 3 4 6 9 12: 353 a.u.
2'F-ANA at 1 2 7 8 9 10 11 12 15: 65.9 a.u.
2'F-ANA at 1 3 5 6 8 9 11 12 15: 104 a.u.
2'F-ANA at 2 6: 447 a.u.
2'F-ANA at 2 6 7 11 13: 273 a.u.
2'F-ANA at 1 2 4 6 7 12 15: 246 a.u.
2'F-ANA at 1 2 4 5 8 10: 46.8 a.u.
2'F-ANA at 4 6 8 10 12 14: 55.3 a.u.
2'F-ANA at 2 3 6 7 8 9 11 12 13 15: 701 a.u.
